{"data": "Measurements pooled from the literature", "note": "A part holds a random share of what one study measured. Changes are numbered by the printed parent chain."}
{"data": "Study 1", "target": "CCND3, cyclin fold, Cln2 fusion (human)", "technique": "yeast growth competition, sequencing", "medium": "yeast", "notes": "weak parent motif", "relative to": "not given", "direction": "higher = stronger binding", "starting sequence": "CDKN1A docking peptide (human); SKACRRLFGPVDS; partner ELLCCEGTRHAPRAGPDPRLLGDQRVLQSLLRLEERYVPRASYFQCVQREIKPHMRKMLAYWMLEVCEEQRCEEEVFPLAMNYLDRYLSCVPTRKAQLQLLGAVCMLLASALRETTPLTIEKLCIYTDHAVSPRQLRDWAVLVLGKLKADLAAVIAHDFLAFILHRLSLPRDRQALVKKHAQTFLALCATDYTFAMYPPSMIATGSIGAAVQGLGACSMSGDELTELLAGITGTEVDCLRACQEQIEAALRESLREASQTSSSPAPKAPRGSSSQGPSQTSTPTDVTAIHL"}
{"Variant": "D12R", "normalised enrichment score": 0.0914}
{"Variant": "V11D", "normalised enrichment score": 0.72}
{"Variant": "K2R", "normalised enrichment score": 0.291}
{"Variant": "C4F", "normalised enrichment score": -0.257}
{"Variant": "F8E", "normalised enrichment score": -0.448}
{"Variant": "R6P", "normalised enrichment score": -0.285}
{"Variant": "F8L", "normalised enrichment score": -0.329}
{"data": "Study 2", "target": "RING finger protein unkempt homolog, zinc fingers 1-6, GST-SBP tag (UNK, Homo sapiens, UniProt Q9C0B0, residues 30-357)", "technique": "RNA Bind-n-Seq", "form": "RNA", "medium": "in vitro", "tested at": "not given", "notes": "RNA with constant flanks, human-mouse chimeric sites, ends assumed", "relative to": "input RNA pool", "direction": "higher = stronger binding", "all sequences stand within": "GGGAGUUCUACAGUCCGACGAUC … CAACAGAGGAUUGAGCAUCA", "Construct (chain)": "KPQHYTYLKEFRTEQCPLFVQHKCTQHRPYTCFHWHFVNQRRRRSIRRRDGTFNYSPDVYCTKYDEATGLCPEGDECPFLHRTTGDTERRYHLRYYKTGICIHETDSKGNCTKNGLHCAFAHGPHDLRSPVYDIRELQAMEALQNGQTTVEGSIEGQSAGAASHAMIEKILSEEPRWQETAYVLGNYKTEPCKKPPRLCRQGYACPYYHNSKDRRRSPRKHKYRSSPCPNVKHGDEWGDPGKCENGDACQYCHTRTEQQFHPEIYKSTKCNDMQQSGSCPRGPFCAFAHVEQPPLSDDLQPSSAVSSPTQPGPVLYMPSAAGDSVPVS"}
{"Sequence": "AUGGAACAUUUCGAUGCGUCACUCAGUACCUAUUUCAAGGCCUUCCUGGGCCCCCGAGAUACUAGAGUCAAAGGAUGGUUCCUCCUGGACAAUUACAUCCCUACGUUUGUCUGUUCUGUU", "bound/input enrichment [ratio]": 0.0925}
{"Sequence": "CUCAUGGCUGCAGAAACAGGAAGUGGAAAAACUGGUGCAUUUAGUAUUCCCGUUAUCCAGAUAGUUUAUGAAACUCUGAAAGACCAACAGGAAGGAAAGAAAGGGAAAACAACAAUUAAA", "bound/input enrichment [ratio]": 1.34}
{"Sequence": "CUGGCACUCUAUCAGAUAUAUUAAUUUUUAAAUGUAGAUGUAAUUUUAAAAAUGAAUGGCUACUUUACACGUUUAACUAGGCUCUUACUAUAUAUGUGUACAUAUGUAUAUAUAUAUAUA", "bound/input enrichment [ratio]": 7.51}
{"Sequence": "UUUGUAUUUAUGCUAAGCACACGUGCUGGUGGUCUGGGCAUCAAUCUUGCAACUGCUGAUGUAGUCAUUUUAUAUGACUCAGAUUGGAAUCCCCAAGUAGAUCUUCAGGCUAUGGACCGU", "bound/input enrichment [ratio]": 0.238}
{"Sequence": "UGUGAACUGUCUCUUGAGAUCUAAAAAAAACAUGAUUUUUCCUGGCACAUAUUCCAAAGCAAAGACUUUGUUGCCUGCUGCUUAUUGUCUAAUUUACAGGGAUAUUUAAUUUUGUAAGGU", "bound/input enrichment [ratio]": 0.116}
{"Sequence": "UACAUUUUACACUGUUGUUUCAUUUUCAUAUAUUCUUGUAGUGUCUGCUUGCCUGUGACUUCUGGUAAAAUAAAAUAAGCCUUUGAAAAUAUUUUAGCAUGGUAUUUAACAUUUUCUAAA", "bound/input enrichment [ratio]": 3.43}
{"Sequence": "UCCUUGGAACCCAGUCAUAUAGGUGACCUGCAAAAAGCAGACACCAGUAGUCAAGGUGCUUUAGUGUUUCUCUCAAAGGACUACGAAAUAGAAAAUCAAAAUCCUCUGGCCUCUCCUACG", "bound/input enrichment [ratio]": 2.62}
{"Sequence": "CACACACUCUUCUGCGGCACCCUCAUUUUGCAGGCCCGGGCCUAUGUGGGACCGCACGUGCUAGCAGUGGUGACCCGCACAGGGUUCUGCACGGCAAAAGGGGGCCUGGUGAGCUCCAUC", "bound/input enrichment [ratio]": 0.129}
{"data": "Study 3", "target": "Histone acetyltransferase KAT6A, both winged helices, GST fusion (KAT6A, Homo sapiens, UniProt Q92794, residues 1-181)", "technique": "protein binding microarray", "form": "double-stranded DNA, one strand shown", "medium": "in vitro", "tested at": "not given", "notes": "8-mer, flanks averaged, mean of 2 arrays, mostly near background", "relative to": "not given", "direction": "higher = stronger binding", "Construct (chain)": "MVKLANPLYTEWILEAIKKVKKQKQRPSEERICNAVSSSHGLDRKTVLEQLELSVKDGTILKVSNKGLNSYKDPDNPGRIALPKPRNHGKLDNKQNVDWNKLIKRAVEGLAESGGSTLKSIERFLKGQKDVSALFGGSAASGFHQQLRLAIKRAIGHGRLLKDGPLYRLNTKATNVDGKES"}
{"Sequence": "ACTCCGCA", "E-score": -0.0257}
{"Sequence": "CCATACTC", "E-score": -0.109}
{"Sequence": "ATCTTCGC", "E-score": -0.0358}
{"Sequence": "CTGGCGTC", "E-score": 0.0475}
{"Sequence": "GATGACTA", "E-score": -0.0931}
{"Sequence": "CAAGCCAG", "E-score": -0.254}
{"Sequence": "CACGCTGC", "E-score": 0.117}
{"data": "Mixed results"}
{"Molecule": "PhoQ, residues 284 288 289 292 302 303 TLSLKA", "target": "PhoP, residues 12 14 15 18 19 GHCSL (Escherichia coli, UniProt P23836)", "assay": "Sort-seq, item: YFP reporter", "test system": "E. coli", "conditions": "PhoQ-PhoP variant library, added: 10 µM Mg2+", "how to read": "relative to: high Mg2+ state, higher = stronger signaling", "measurement": "fold induction", "value": 4.03}
{"note": "Some of these lines once more (mixed results):"}
{"Molecule": "PhoQ, residues 284 288 289 292 302 303 TLSLKA", "target": "PhoP, residues 12 14 15 18 19 GHCSL (Escherichia coli, UniProt P23836)", "assay": "Sort-seq, item: YFP reporter", "test system": "E. coli", "conditions": "PhoQ-PhoP variant library, added: 10 µM Mg2+", "how to read": "relative to: high Mg2+ state, higher = stronger signaling", "measurement": "fold induction", "value": 4.03}
